# Experimental data pooled from the literature.
# Lines come from different studies, so protocols differ. ± gives the spread as reported.
SMILES,cell line,test,setting,scale,viability
O=c1c(NCCc2ccc(O)cc2)c(NC2CCN(Cc3ccccc3)CC2)c1=O,SH-SY5Y,MTT,"6.25 µM, 24 h",,97.85 ± 0.46%
COC(=O)C1=CO[C@@H](OC(C)=O)[C@@H]2C(Cn3cc(COCc4ccc(OC)c(OC)c4)nn3)=CC[C@H]12,SK-N-SH,MTT,"0.075 to 0.6 µM, 24 h, with: H2O2",,> 78%
COc1ccc(CCNc2c(NC3CCN(Cc4ccccc4)CC3)c(=O)c2=O)cc1OC,SH-SY5Y,MTT,"12.5 µM, 24 h",,98.3 ± 1.58%
COC(=O)C1=CO[C@@H](OC(C)=O)[C@@H]2C(Cn3cc(CCO)nn3)=CC[C@H]12,SK-N-SH,MTT,"0.075 to 0.6 µM, 24 h, with: H2O2",,> 78%
O=C1CC(c2ccccc2)Oc2ccccc21 (stereo not shown),Vero E6-GFP,,"highest tested, 72 h, with: CP-100356 2 µM",reference: untreated,100%
CC(C)C[C@H](NC(=O)[C@H](CCC(N)=O)NC(=O)CNC(=O)[C@H](Cc1c[nH]cn1)NC(=O)[C@H](CCC(N)=O)NC(=O)[C@H](CCCNC(=N)N)NC(=O)[C@H](CCCNC(=N)N)NC(=O)CNC(=O)CNC(=O)[C@H](CCCNC(=N)N)NC(=O)[C@H](CCCNC(=N)N)NC(=O)[C@H](CCCNC(=N)N)NC(=O)[C@H](CCC(N)=O)NC(=O)[C@H](CCCNC(=N)N)NC(=O)[C@H](CCCNC(=N)N)NC(=O)[C@H](CCCCN)NC(=O)[C@H](CCCCN)NC(=O)[C@H](CCCNC(=N)N)NC(=O)CN)C(=O)N[C@@H](Cc1c[nH]c2ccccc12)C(=O)N[C@@H](Cc1ccccc1)C(=O)N1CCC[C@H]1C(=O)N[C@@H](CCC(=O)O)C(=O)NCC(=O)N[C@@H](Cc1ccccc1)C(=O)O,"human PBMC, normal",WST-8,"concentration not given, 24 h",,no effect
O=c1c(NCCc2ccccc2)c(NC2CCN(Cc3ccccc3)CC2)c1=O,SH-SY5Y,MTT,"6.25 µM, 24 h",,121 ± 1.55%
COC(=O)C1=CO[C@@H](O)[C@@H]2C(Cn3cc(C4(O)CCCC4)nn3)=CC[C@H]12,SK-N-SH,MTT,"0.15 µM, 24 h, with: H2O2 250 µM",,78.3 ± 1.8%
CC[C@H](C)[C@H](NC(=O)[C@H](Cc1ccccc1)NC(=O)[C@H](CO)NC(=O)CN)C(=O)N[C@@H](Cc1c[nH]cn1)C(=O)N[C@@H](CO)C(=O)N[C@H](C(=O)N1CCC[C@H]1C(=O)N[C@@H](CCCNC(=N)N)C(=O)N[C@@H](Cc1c[nH]cn1)C(=O)O)C(C)C,bEnd.3,CCK-8,100 µg/mL,,no effect
O=C1CCCC2=C1C(c1c[nH]c3ccccc13)n1c(sc(=Cc3c[nH]c4ccccc34)c1=O)=N2 (stereo not shown),SH-SY5Y,"cell growth or viability, MTT",20 µM,,96%
COC(=O)C1=CO[C@@H](OC(C)=O)[C@@H]2C(Cn3cc(CON4C(=O)c5ccccc5C4=O)nn3)=CC[C@H]12,SK-N-SH,MTT,"0.075 to 0.6 µM, 24 h, with: H2O2",,> 78%
COc1ccc(Nc2c(NC3CCN(Cc4ccccc4)CC3)c(=O)c2=O)cc1,SH-SY5Y,MTT,"6.25 µM, 24 h",,103.2 ± 0.48%
COCCN1COc2c(cc3c4c(c(=O)oc3c2C)CCC4)C1,SH-SY5Y,,"50 µM, 24 h",,90.2 ± 0.39%

# Excerpt of the above:
SMILES,cell line,test,setting,scale,viability
COC(=O)C1=CO[C@@H](OC(C)=O)[C@@H]2C(Cn3cc(COCc4ccc(OC)c(OC)c4)nn3)=CC[C@H]12,SK-N-SH,MTT,"0.075 to 0.6 µM, 24 h, with: H2O2",,> 78%
CC[C@H](C)[C@H](NC(=O)[C@H](Cc1ccccc1)NC(=O)[C@H](CO)NC(=O)CN)C(=O)N[C@@H](Cc1c[nH]cn1)C(=O)N[C@@H](CO)C(=O)N[C@H](C(=O)N1CCC[C@H]1C(=O)N[C@@H](CCCNC(=N)N)C(=O)N[C@@H](Cc1c[nH]cn1)C(=O)O)C(C)C,bEnd.3,CCK-8,100 µg/mL,,no effect
